Assay results gathered from unrelated publications.
Each line is one published result; not all experiments were run side by side.
Target: Serine/threonine-protein kinase 36 (STK36, Homo sapiens, UniProt Q9NRP7)

Compound | effect on | method | cell line | tested at | baseline | endpoint | result
Cc1ccc(C(=O)Nc2ccc(CN3CCN(C)CC3)c(C(F)(F)F)c2)cc1C#Cc1cnc2cccnn12 | target engagement | NanoBRET | human cells |  |  | Hill slope | 1.02
CC(C)=CC1OC(C)(C)C2C=C3C(=O)C(Cl)=CC(O)C3C3C(O)C4OC4C(=O)C132 (centres unmarked) | cell-free assay | competition with immobilised ligand |  | 10 µM |  | remaining binding | 85%
COc1c(Cl)cccc1Nc1c(-c2ccncc2C#C[C@@]2(C)CCCN2C(=O)/C=C/CN(C)C)[nH]c2c1C(=O)NCC2 | binding | competition with immobilised ligand |  | 3 µM |  | remaining binding | 60%
Cc1ccc(-c2c(/C=C(\C#N)C(=O)NC(C)C)n(CCCO)c3ncnc(N)c23)cc1 | cell-free assay | competition with immobilised ligand |  | 1 µM |  | remaining binding | 100%
COc1cc(Nc2nc(C)cc(-c3cnn4nc(OC)ccc34)n2)cc(C(F)(F)F)c1 | binding | competition with immobilised ligand |  | 1 µM |  | remaining binding | 99%
CNC(=O)C1CCN(c2cc(C)c(F)cc2NC(=O)c2ccc(-c3cc(O)ccc3C)c(C)c2)CC1 | binding | competition with immobilised ligand |  | 1 µM |  | remaining binding | 100%
Cc1cnc2nc1Nc1cccc(c1)COC/C=C/COCc1cc(ccc1OCCN1CCOCC1)N2 | binding | competition with immobilised ligand |  | 0.1 µM |  | remaining binding | 93%
COc1cc(Nc2nccc(-c3cnn4nc(OC)ccc34)n2)cc(C(F)(F)F)c1 | binding | competition with immobilised ligand |  | 1 µM |  | remaining binding | 86%
CNC1C[S+]2CC[S+]3CC[S+](C1)[Ru-4]321([N]=C=S)[n]2c3ccc(OC)cc3c3c4c(c5cc(F)c[n+]1c5c32)C(=O)NC4=O (centres unmarked) |  | KinomeScan |  | 0.1 µM | untreated | remaining binding | 100%
Nc1ncc2c(n1)-c1c([nH]c3ccc(C4=CCOCC4)cc13)CCC2 | binding | competition with immobilised ligand |  | 1 µM |  | remaining binding | 100%
CCN1CCN(Cc2ccc(NC(=O)c3ccc(C)c(NC(=O)c4cncc(-c5cccs5)c4)c3)cc2C(F)(F)F)CC1 | binding | competition with immobilised ligand |  | 1 µM |  | remaining binding | 0.75%
C=CC(=O)N1CCc2ccc(-n3c(=O)ccc4cnc5ccc(-c6cnn(C)c6)cc5c43)cc21 |  | KINOMEscan |  | 1 µM | DMSO control | remaining binding | 100%
CCN1CCN(Cc2ccc(C(=O)Nc3ccc(C)c(NCc4cnc5[nH]ccc5c4OC)c3)cc2C(F)(F)F)CC1 | binding | competition with immobilised ligand |  | 1 µM |  | remaining binding | 0.85%
C=CC(=O)N1CCCC(n2c(=O)c3ncccc3n(Cc3ccc(Oc4ccccc4)cc3)c2=O)C1 (centres unmarked) | cell-free assay | competition with immobilised ligand |  | 1 µM |  | remaining binding | 100%
